Results gathered from unrelated publications.
Each line is one published result; not all experiments were run side by side. Numbers after ± are the reported error.
Cell line: T47D

`C=CC(=O)N1CCC(COCC(=O)N2CCN(c3nc(-c4cnc(N)nc4C(F)F)nc(N4CCOC[C@@H]4C)n3)CC2)CC1` has an IC50 of 11.1 nM (Akt phosphorylation, inhibitor, in-cell western, measured: Akt pSer473; 2 h).
`CN1CCN(c2ccc3[nH]c(-c4ccc5[nH]c(-c6ccc(C(F)(F)F)cc6)nc5c4)nc3c2)CC1` has a growth percent of 58% (SRB; 10 µM, 48 h).
`C[C@H](Nc1ccc2c(c1)OCCn1cc(N3C(=O)OC[C@H]3C(F)F)nc1-2)C(N)=O` has an IC50 of 27.4 nM (growth rate inhibition, CellTiter-Glo; 120 h).
`O=C(Nc1nnc2n3c(nc(-c4ccc(Cl)cc4)c1-2)SCC3=O)c1ccccc1` has a cell growth of 76.2% (SRB; 10 µM, NCI60 single-dose screen; relative to: untreated).
For `CCCCN1CCN(c2ccc3[nH]c(-c4ccc5[nH]c(-c6ccc(OCC)c(OCC)c6)nc5c4)nc3c2)CC1`, the growth percent was 39.9% (SRB; 10 µM, 48 h).
With `Cc1cc(=O)[nH]c(=O)n1Cc1cn(-c2cc3ccccc3oc2=O)nn1` the growth percentage was 97.2% (NCI60 single-dose screen; 10 µM).
`CC(C)[C@H](NC(=O)c1cc(Cl)ccc1OCCNC(=O)OC(C)(C)C)C(=O)Nc1ccc([N+](=O)[O-])cc1Cl` — result for colony formation: “inhibited” (0.1 to 10 µM, 2 weeks).
Under “cells in G1 phase”, `COC(=O)c1cc(C(C)=NNc2nc(-c3ccc4c(c3)OCCCO4)cs2)ccc1O` is recorded as 24.3 ± 2.1% (flow cytometry; 40 µM, 72 h).
With `COc1ccc2[nH]cc(CCNC(C)=O)c2c1` the IC50 was 49100 nM.
For `Cc1cc(=O)[nH]n1-c1nc(-c2ccc(Cl)cc2)c2c(NC(=O)c3ccccc3)nnc-2[nH]1`, the cell growth was 102% (SRB; 10 µM, NCI60 single-dose screen; relative to: untreated).
For `COc1ccc(OC)c(-c2nc3ccc(-c4nc5ccc(N6CCN(C)CC6)cc5[nH]4)cc3[nH]2)c1`, the growth percent was 95.2% (SRB; 10 µM, 48 h).
For `Cc1n[nH]c2nc(-c3ccc(Cl)cc3)c3c(NC(=O)c4ccccc4)nnc-3n12`, the cell growth was 97.6% (SRB; 10 µM, NCI60 single-dose screen; relative to: untreated).
For `CCC(=O)N1CCC(COCC(=O)N2CCN(c3nc(-c4cnc(N)nc4C(F)F)nc(N4CCOC[C@@H]4C)n3)CC2)CC1`, the GR50 was 33.9 nM (cell growth; 72 h).
For `CCCN1CCN(c2ccc3[nH]c(-c4ccc5[nH]c(-c6ccc(C(F)(F)F)cc6)nc5c4)nc3c2)CC1`, the growth percent was 48% (SRB; 10 µM, 48 h).
`C#C[C@@]1(O)[C@@H](CO)O[C@@H](n2cc(F)c3c(N)ncnc32)[C@@H]1O` has a TGI of 770 nM (SRB; NCI-60 screen).
For `Cc1nc(NC(=O)N2CCC[C@H]2C(N)=O)sc1-c1ccnc(C(C)(C)C(F)(F)F)c1`, the IC50 was 249 nM (FOXO1 translocation, kinase translocation reporter; 2 h).
The TGI of `C#C[C@@]1(O)[C@@H](CO)O[C@@H](n2ccc3c(N)ncnc32)[C@@H]1O` is reported as 2140 nM (SRB; NCI-60 screen).
`CCC(=O)Nc1cc(Nc2cc(NC3CC3)n3ncc(C#N)c3n2)ccc1C` has an IC50 of 1200 to 2800 nM (cell growth, CellTiter-Glo; 72 h).
`O=C1NC(c2ccccc2)(c2ccccc2)C(=O)N1Cc1cn(-c2cc3ccccc3oc2=O)nn1` gave a growth percentage of 95.2% (NCI60 single-dose screen; 10 µM).
With `Cc1cc(C)n(-c2nc(-c3ccc(Cl)cc3)c3c(NC(=O)c4ccccc4)nnc-3[nH]2)n1` the cell growth was 82.3% (SRB; 10 µM, NCI60 single-dose screen; relative to: untreated).
The growth percent of `CCCCN1CCN(c2ccc3[nH]c(-c4ccc5[nH]c(-c6ccc(OCC)cc6)nc5c4)nc3c2)CC1` is reported as 59.6% (SRB; 10 µM, 48 h).
`O=C(Cc1ccccc1)Nc1nnc(CCSCCc2nnc(NC(=O)Cc3ccccc3)s2)s1` has an EC50 of roughly 20000 nM (cell proliferation, inhibitor, cell counting; 144 h).
With `CCc1oc2cc(S(=O)(=O)Nc3ccc(S(=O)(=O)Nc4nccs4)cc3)ccc2c1C(=O)c1cc(Br)c(O)c(Br)c1` the apoptotic cells was 9.72 ± 2.94% (annexin V-FITC/PI flow cytometry; 40 µM, 72 h).
For `Cc1nc(NC(=O)N2CCC[C@H]2C(N)=O)sc1-c1ccnc(C(C)(C)C(F)(F)F)c1`, the IC50 was 481 nM (growth rate inhibition, CellTiter-Glo; 120 h).
`O=C1NC(=NCc2cccs2)S/C1=C\c1ccc2ncccc2c1` has an IC50 of 6190 nM (MTS; NCI60 panel).
With `CCCN1CCN(c2ccc3nc(-c4ccc5nc(-c6cc(OC)ccc6OC)[nH]c5c4)[nH]c3c2)CC1` the growth percent was 98.8% (SRB; 10 µM, 48 h).
`O=c1ccn(Cc2cn(-c3c4ccccc4nc4ccccc34)nn2)c(=O)[nH]1` gave a growth percentage of 38% (NCI60 single-dose screen; 10 µM).
`S=C([S][Au-][P+](CCCCCC[P+]([Au-][S]C(=S)n1cccn1)(c1ccccc1)c1ccccc1)(c1ccccc1)c1ccccc1)n1cccn1` gave a log10 TGI of -4.21 (cell growth, NCI-60 screen; breast cancer).
`C[C@H](Nc1ccc2c(c1)OCCn1cc(N3C(=O)OC[C@H]3C(F)F)nc1-2)C(N)=O` has an IC50 of 44.9 nM (FOXO1 translocation, kinase translocation reporter; 2 h).
`O=C(Nc1nnc2n3c(=S)[nH][nH]c3nc(-c3ccc(Cl)cc3)c1-2)c1ccccc1` has a cell growth of 89.6% (SRB; 10 µM, NCI60 single-dose screen; relative to: untreated).
The GI50 of `Cn1cncc1C1=CN(c2ncnc3[nH]cnc23)CCS1` is reported as 10700 nM.

Repeated from above:
For `CCC(=O)N1CCC(COCC(=O)N2CCN(c3nc(-c4cnc(N)nc4C(F)F)nc(N4CCOC[C@@H]4C)n3)CC2)CC1`, the GR50 was 33.9 nM (cell growth; 72 h).
For `CCCN1CCN(c2ccc3[nH]c(-c4ccc5[nH]c(-c6ccc(C(F)(F)F)cc6)nc5c4)nc3c2)CC1`, the growth percent was 48% (SRB; 10 µM, 48 h).
`C#C[C@@]1(O)[C@@H](CO)O[C@@H](n2cc(F)c3c(N)ncnc32)[C@@H]1O` has a TGI of 770 nM (SRB; NCI-60 screen).
For `Cc1nc(NC(=O)N2CCC[C@H]2C(N)=O)sc1-c1ccnc(C(C)(C)C(F)(F)F)c1`, the IC50 was 249 nM (FOXO1 translocation, kinase translocation reporter; 2 h).
